Results gathered from unrelated publications.
ABL1 phosphorylated: Tyrosine-protein kinase ABL1, phosphorylated (ABL1, Homo sapiens, UniProt P00519)
ABL1 H396P non-phosphorylated: Tyrosine-protein kinase ABL1, non-phosphorylated (ABL1, Homo sapiens, UniProt P00519, H396P)

SMILES	target	test	setting	scale	endpoint	value
Cc1ccc(-c2c(/C=C(\C#N)C(=O)NC(C)C)n(CCCO)c3ncnc(N)c23)cc1	ABL1 phosphorylated	cell-free assay, competition with immobilised ligand	1 µM	–	remaining binding	94%
Nc1ncc2c(n1)-c1c([nH]c3ccc(C4=CCOCC4)cc13)CCC2	Tyrosine-protein kinase ABL1, non-phosphorylated (ABL1, Homo sapiens, UniProt P00519)	binding, competition with immobilised ligand	1 µM	–	remaining binding	100%
CNC(=O)C1CCN(c2cc(C)c(F)cc2NC(=O)c2ccc(-c3cc(O)ccc3C)c(C)c2)CC1	ABL1 H396P non-phosphorylated	binding, competition with immobilised ligand	1 µM	–	remaining binding	20%
C=CC(=O)N1CCCC(n2c(=O)c3ncccc3n(Cc3ccc(Oc4ccccc4)cc3)c2=O)C1 (stereo not drawn)	ABL1 (Homo sapiens, UniProt P00519, F317I)	kinase activity	1 µM	–	remaining activity	100%
CNC1C[S+]2CC[S+]3CC[S+](C1)[Ru-4]321([N]=C=S)[n]2c3ccc(OC)cc3c3c4c(c5cc(F)c[n+]1c5c32)C(=O)NC4=O (stereo not drawn)	ABL1 phosphorylated	KinomeScan	0.1 µM	baseline: untreated	remaining binding	100%
COc1cc(Nc2nccc(-c3cnn4nc(OC)ccc34)n2)cc(C(F)(F)F)c1	ABL1 H396P non-phosphorylated	binding	1 µM	–	remaining binding	99%
C=CC(=O)N1CCc2ccc(-n3c(=O)ccc4cnc5ccc(-c6cnn(C)c6)cc5c43)cc21	Tyrosine-protein kinase ABL1, phosphorylated (ABL1, Homo sapiens, UniProt P00519, F317I)	KINOMEscan, item: (F317I)-phosphorylated	1 µM	baseline: control	remaining binding	100%
CCN1CCN(Cc2ccc(C(=O)Nc3ccc(C)c(NCc4cnc5[nH]ccc5c4OC)c3)cc2C(F)(F)F)CC1	Tyrosine-protein kinase ABL1, phosphorylated (ABL1, Homo sapiens, UniProt P00519, T315I)	binding, competition with immobilised ligand	1 µM	–	remaining binding	1.2%
Cc1cnc2nc1Nc1cccc(c1)COC/C=C/COCc1cc(ccc1OCCN1CCOCC1)N2	ABL1 (Homo sapiens, UniProt P00519, H396P)	binding	0.1 µM	–	remaining binding	54%

For quick reference, copied from above:
SMILES	target	test	setting	scale	endpoint	value
Cc1ccc(-c2c(/C=C(\C#N)C(=O)NC(C)C)n(CCCO)c3ncnc(N)c23)cc1	ABL1 phosphorylated	cell-free assay, competition with immobilised ligand	1 µM	–	remaining binding	94%
